Published values collected from several papers.
Parts stem from different laboratories: compare values within a part only. Substitutions count along the parent as printed.

Block 1
Target: Sal-like protein 4, full length isoform B (SALL4, Homo sapiens, UniProt Q9UJQ4-2, residues 1-616)
Technique: universal PBM
Molecule type: double-stranded DNA, one strand shown
Sample: in vitro
Tested at: not given
Notes: 8-mer, flanks averaged, mean of replicates
Reading: higher = stronger binding
Oligonucleotide	E-score
CCCAGTCG	-0.333
TGCTACCA	-0.1
CTGGGAAA	0.00794
AAACGGCC	-0.173
GAGCTAAC	-0.0344

Block 2
Target: Ras GTPase-activating protein-binding protein 1, full length (G3BP1, Homo sapiens, UniProt Q13283)
Chain of UniProt Q13283 (whole entry, looked up): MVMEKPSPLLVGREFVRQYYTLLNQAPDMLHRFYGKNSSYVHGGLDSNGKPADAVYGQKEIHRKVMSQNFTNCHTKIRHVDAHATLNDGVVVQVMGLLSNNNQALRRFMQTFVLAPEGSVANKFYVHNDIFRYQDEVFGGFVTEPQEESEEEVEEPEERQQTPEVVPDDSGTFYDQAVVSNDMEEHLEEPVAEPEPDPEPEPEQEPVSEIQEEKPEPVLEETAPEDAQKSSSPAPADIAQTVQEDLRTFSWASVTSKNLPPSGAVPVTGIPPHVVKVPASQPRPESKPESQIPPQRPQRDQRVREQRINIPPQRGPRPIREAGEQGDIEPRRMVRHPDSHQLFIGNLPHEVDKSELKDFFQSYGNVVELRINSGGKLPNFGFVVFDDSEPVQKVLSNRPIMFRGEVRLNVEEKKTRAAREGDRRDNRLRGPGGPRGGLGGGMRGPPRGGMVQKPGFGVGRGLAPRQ
Technique: RNA Bind-n-Seq
Molecule type: RNA
Sample: in vitro
Tested at: 200 nM
Notes: whole 134-nt RNA, ends assumed
Together with: 150 mM KCl
Baseline: input library
Reading: higher = stronger binding
All sequences stand within: GGGAGUUCUACAGUCCGACGAUC … UGGAAUUCUCGGGUGUCAAGG
Oligonucleotide	log2 enrichment
ACCAUGCAGGUGGGCAUCUUUGGGAAGUGGGGCAAGGGGGGGAUAGGGAGGGGGGUAACACUUUGGGAACAGGUGAAACCAGGUCGUUUC	0.917
UCAAGUCCUGUGCUACACAUCGUAUGUACCGAAUCGGAAAGGUUUGGAAAAAGGAAAGUAUUAUGUUACGCCGUUCGGAUCUGCACUUCC	-0.944
UGGCCCUGGUGGCAUGCGGGGAGGAAGAGGUGGCCUCAUGGAUCGUGGUGGUCCCGGUGGAAUGUUCAGAGGUGGCCGUGGUGGAGACAG	-0.0749
UCCUGUGCUACACAUCGUAUGUACCGAAUCGGCCCCCCCGGCCCCCCCGGCCCCCCCGGAAAGUAUUAUGUUACGCCGUUCGGAUCUGCA	0.376
GUCCUGUGCUACACAUCGUAUGUACCGAAUCGGGGAAAAAAAGGGGUGGGGAAAGGGGAAAGUAUUAUGUUACGCCGUUCGGAUCUGCAC	0.371
GCAGGAAGUAAAAACAAAUGGAAAUGCUUCGGAUAGUGGCAGGGGUGGGGGUUGCUAAGGAACGGGUGGGAUGGGAGUGGGUAAAGAGUU	0.722

Block 3
Target: CCNB3, cyclin fold, Cln2 fusion (human)
Technique: yeast growth competition, sequencing
Sample: yeast
Notes: weak parent motif
Baseline: not given
Reading: higher = stronger binding
Starting sequence: CDKN1A docking peptide (human); SKACRRLFGPVDS
Substitution	normalised enrichment score
SKSCRRLFGPVDS [A3S]	0.151
SKALRRLFGPVDS [C4L]	0.215
SKACRRVFGPVDS [L7V]	0.602
SKACRRLFSPVDS [G9S]	0.516

Further values, each from its own experiment
Molecule	target	assay	system	conditions	scale	measurement	value
PhoQ, residues 284 288 289 292 302 303 TTCLQL	PhoP, residues 12 14 15 18 19 AQALL (Escherichia coli, UniProt P23836)	Sort-seq, measured: YFP reporter	E. coli	PhoQ-PhoP variant library, together with: 10 µM Mg2+	baseline: high Mg2+ state, higher = stronger signaling	fold induction	2.47

For quick reference, copied from above (block 2):
Oligonucleotide	log2 enrichment
UCCUGUGCUACACAUCGUAUGUACCGAAUCGGCCCCCCCGGCCCCCCCGGCCCCCCCGGAAAGUAUUAUGUUACGCCGUUCGGAUCUGCA	0.376
GUCCUGUGCUACACAUCGUAUGUACCGAAUCGGGGAAAAAAAGGGGUGGGGAAAGGGGAAAGUAUUAUGUUACGCCGUUCGGAUCUGCAC	0.371
GCAGGAAGUAAAAACAAAUGGAAAUGCUUCGGAUAGUGGCAGGGGUGGGGGUUGCUAAGGAACGGGUGGGAUGGGAGUGGGUAAAGAGUU	0.722
